Measured values gathered from unrelated publications.
Each numbered part is a random draw from the data of one study; scales do not carry over between parts. Changes are numbered by the printed parent chain.

Block 1
Target: Fragile X messenger ribonucleoprotein 1, C-terminal low-complexity region (Fmr1, Mus musculus, UniProt P35922)
Technique: RNA Bind-n-Seq
Molecule type: RNA
Medium: in vitro
Tested at: 200 nM
Notes: whole 134-nt RNA, ends assumed
With: 150 mM KCl
Baseline: input library
Direction: higher = stronger binding
Measurement: log2 enrichment
Constant ends, left off below: GGGAGUUCUACAGUCCGACGAUC … UGGAAUUCUCGGGUGUCAAGG
UGGGAGGUGGAUUUUGUUUAUUUUUUUAGCUCAUUUCCAGGGGUGGGAAUUUUUUUUUAAUGUGUGUCAUGAAUAAAGUUGUUUUUGAAA: 0.363
UAACUUUAGAGGAGGAUCUGAUGGAUAUGGCAGUGGACGUGAAUUUGGGGAUGGCUAUAAUGGGUAUGGAGGAGGACCUGGAGGUGGCAA: 0.305
GCUGUUGGAGUGGAUCCGCCGCACAAUCCCGUGGCUGGAGAACCGGGUGCCCGAGAACACCAUGCAUGCCAUGCAACAGAAGCUGGAGGA: -2.09
AGUCCUGUGCUACACAUCGUAUGUACCGAAUCGGGGAAAAAGGGGUUUGGGGUGGGGAAAGUAUUAUGUUACGCCGUUCGGAUCUGCACU: 0.927
GUCCUGUGCUACACAUCGUAUGUACCGAAUCGGGGAAAAAGGAAAAAGGAAAAAGGGGAAAGUAUUAUGUUACGCCGUUCGGAUCUGCAC: -0.29
CAAGUCCUGUGCUACACAUCGUAUGUACCGAAUCGGUUUGGAAAAAGGUUUUUGGAAAGUAUUAUGUUACGCCGUUCGGAUCUGCACUUC: -0.827
UCCUGUGCUACACAUCGUAUGUACCGAAUCGGGGAGGGGAAAAAAAGGGGAAAAAGGGGAAAGUAUUAUGUUACGCCGUUCGGAUCUGCA: 0.385
UCCUCAAGUCCUGUGCUACACAUCGUAUGUACCGAAUCGGUGGGUGGGUGGGAAAGUAUUAUGUUACGCCGUUCGGAUCUGCACUUCCAG: 1.37
CUCAAGUCCUGUGCUACACAUCGUAUGUACCGAAUCGGGGUGGGGUGGUGGGGAAAGUAUUAUGUUACGCCGUUCGGAUCUGCACUUCCA: 1.14
AAGUCCUGUGCUACACAUCGUAUGUACCGAAUCGGGGUUUUGGUUUUGGGUUUUGGAAAGUAUUAUGUUACGCCGUUCGGAUCUGCACUU: -0.526
UCAAGUCCUGUGCUACACAUCGUAUGUACCGAAUCGGGUUGGUUGGGGUUGGGGAAAGUAUUAUGUUACGCCGUUCGGAUCUGCACUUCC: 1.05
CACAGACAACACGCACCCACACAGACACAGAGGGAAGGGGUUGGGAUGGGGACAGGGUGCACAGCAGGGCGGGGUAGGAACCCAGCCCCU: 1.28
UAACUUUAGAGGAGGAUCUGAUGGAUAUGGCAGUGGACGUGGAUUUGGGGAUGGCUAUAAUGGGUAUGGAGGAGGACCUGAAGGUGGCAA: 0.134
UAACUUUAGAGGAGGAUCUGAUGGAUAUGGCAGUGGACGUGGAUUUGGGGAUGGCUAUAAUGGGUAUGGAGGAGGACCUGGAGAUGGCAA: 0.265

Block 2
Target: ABI1, truncated, D143A, DHFR fusion (Arabidopsis thaliana)
Technique: DHFR PCA, deep sequencing
Medium: yeast
Notes: methotrexate growth selection, single substitutions
With: (+)-ABA 2500 µM
Baseline: wild-type fitted maximum
Direction: higher = stronger binding
Measurement: relative binding score
Starting sequence: PYL1, truncated, DHFR fusion (Arabidopsis thaliana); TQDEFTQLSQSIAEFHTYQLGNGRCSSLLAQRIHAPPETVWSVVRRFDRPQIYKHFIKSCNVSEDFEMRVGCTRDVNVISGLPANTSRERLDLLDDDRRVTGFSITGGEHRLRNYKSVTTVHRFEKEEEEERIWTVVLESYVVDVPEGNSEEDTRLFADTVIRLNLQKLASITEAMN; partner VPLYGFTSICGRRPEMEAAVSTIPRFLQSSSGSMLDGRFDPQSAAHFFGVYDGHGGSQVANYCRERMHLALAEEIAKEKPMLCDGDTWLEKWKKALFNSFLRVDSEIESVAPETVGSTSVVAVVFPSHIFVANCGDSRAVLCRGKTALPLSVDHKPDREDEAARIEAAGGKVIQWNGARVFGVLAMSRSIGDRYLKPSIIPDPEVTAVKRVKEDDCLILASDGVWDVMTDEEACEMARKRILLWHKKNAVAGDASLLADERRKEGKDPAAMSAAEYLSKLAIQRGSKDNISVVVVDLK
V145W: 70.1%
Q2P: 97.4%
V136T: 99%
L169D: -1.67%
R132G: 110%
D92N: 86.3%
L29S: 90.5%
E147Q: 95%
K168Q: 96.9%
Y141E: 11.9%
P83Q: 76.7%
L112S: 9.36%
F56V: 59.1%
G102E: 71.9%
E130F: 101%
V143D: -7.44%
A30T: 100%
I52H: 98.2%
I12F: 88.5%
K168W: 91.3%

Block 3
Target: Interferon regulatory factor 7, full length, phosphomimetic (IRF7, Homo sapiens, UniProt Q92985, residues 1-503, S101K/S471D/S472D/S475D/S476D/S477D/S483D/S484D/S487D)
Technique: protein-binding microarray
Molecule type: double-stranded DNA, one strand shown
Medium: in vitro
Tested at: 250 nM
Notes: 60-bp whole probe
With: salmon DNA 0.4 mg/ml
Baseline: random background probes
Direction: higher = stronger binding
Measurement: log fluorescence
Constant ends, left off below: GCCTAGCAC … GTCTTGATTCGCTTGACGCTGCTG
Construct (chain): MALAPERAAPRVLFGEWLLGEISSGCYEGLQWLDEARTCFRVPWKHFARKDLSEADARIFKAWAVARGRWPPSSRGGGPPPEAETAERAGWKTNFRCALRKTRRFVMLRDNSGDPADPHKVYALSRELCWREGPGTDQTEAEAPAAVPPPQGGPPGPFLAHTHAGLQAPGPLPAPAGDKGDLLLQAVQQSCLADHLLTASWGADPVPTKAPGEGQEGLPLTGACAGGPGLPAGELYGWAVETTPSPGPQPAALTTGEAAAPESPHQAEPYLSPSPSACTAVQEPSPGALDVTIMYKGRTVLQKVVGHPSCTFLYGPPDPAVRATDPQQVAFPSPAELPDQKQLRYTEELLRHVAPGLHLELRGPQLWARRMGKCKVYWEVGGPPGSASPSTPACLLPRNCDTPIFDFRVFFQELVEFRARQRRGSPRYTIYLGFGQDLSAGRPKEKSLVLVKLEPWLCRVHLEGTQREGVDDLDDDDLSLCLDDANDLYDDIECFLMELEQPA
GACAGACTGGGTCTCGGGACGTGCTAG: -0.143 z-score
GATGATATCGGGTATCGAGACGTGCTA: -0.256 z-score
GACGGTTCCGGACTGGGGACGTGCTAG: 0.22 z-score
TTAGGTCTAGGACTGGGTTAGTGCTAG: -0.111 z-score
TGAGGTATCGGGACTGGGTTAGTGCTA: -0.487 z-score
TCATGTCTGGGATTTTGACTGTGCTAG: -0.186 z-score
GACGGACTGGGTATCGGGAGGTGCTAG: -0.351 z-score
AACGGTTCCCTTTTCCTGACGTGCTAG: 3.24 z-score
TTAGGTCTTCTTCTCCTTTAGTGCTAG: 0.669 z-score
TCACTTCTGGGCTGTTTGACTGTGCTA: 0.155 z-score
GACGAACTGGGGACTAGAGACGTGCTA: -0.252 z-score
TTAGTACTGCTTTTCCTTTAGTGCTAG: 1.61 z-score
TTAGGTCTCCTACTGCTTTCGTGCTAG: -0.303 z-score
GACGGTTTCCTACTGGTGACGTGCTAG: 1.24 z-score
TCAGGTTTTCTAATGTTACTGTGCTAG: 0.685 z-score
TTAGGTATCAGTATCGATTAGTGCTAG: 1.07 z-score
CCATCTCAGCCTCCCCAAGGGTGCTAG: 0.363 z-score
ATTTAGTATTACCTATTTCTGTGCTAG: 0.71 z-score
TCAGAACTGGGGTTTCGATTAGTGCTA: 6 z-score
GACGGTCTCTTTATCCTGACGTGCTAG: 0.531 z-score
GAGGGTTTCGACACTGGGGACGTGCTA: 1.97 z-score

Block 4
Target: CCNE1, cyclin fold, Cln2 fusion (human)
Technique: yeast growth competition, sequencing
Medium: yeast
Notes: weak parent motif
Baseline: not given
Direction: higher = stronger binding
Measurement: normalised enrichment score
Starting sequence: DBF4 docking peptide (human); DDIVSKLVFDFVE
DDIVSKLVFDAVE [F11A]: 0.592
DAIVSKLVFDFVE [D2A]: 0.684
DDAVSKLVFDFVE [I3A]: 0.669
DDIASKLVFDFVE [V4A]: 0.374
DDIVAKLVFDFVE [S5A]: 0.196
DDIVSKLVFAFVE [D10A]: 0.485
DDIVSKLVADFVE [F9A]: -0.0273

Block 5
Target: RING finger protein unkempt homolog, zinc fingers 1-6, GST-SBP tag (UNK, Homo sapiens, UniProt Q9C0B0, residues 30-357)
UniProt Q9C0B0, sequence (30-357, looked up): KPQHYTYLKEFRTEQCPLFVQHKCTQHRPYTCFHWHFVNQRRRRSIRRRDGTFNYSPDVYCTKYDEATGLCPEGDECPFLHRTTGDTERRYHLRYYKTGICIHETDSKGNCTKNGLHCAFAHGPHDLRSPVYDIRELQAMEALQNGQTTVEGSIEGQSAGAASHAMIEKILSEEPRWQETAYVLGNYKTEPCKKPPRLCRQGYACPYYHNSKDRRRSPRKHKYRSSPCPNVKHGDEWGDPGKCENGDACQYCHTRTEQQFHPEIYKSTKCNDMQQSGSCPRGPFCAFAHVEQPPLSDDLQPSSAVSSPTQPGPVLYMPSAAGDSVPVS
Technique: RNA Bind-n-Seq
Molecule type: RNA
Medium: in vitro
Tested at: not given
Notes: RNA with constant flanks, human-mouse chimeric sites, ends assumed
Baseline: input RNA pool
Direction: higher = stronger binding
Measurement: bound/input enrichment
Constant ends, left off below: GGGAGUUCUACAGUCCGACGAUC … CAACAGAGGAUUGAGCAUCA
CGCUUGGAUGAGGCGGGUGUCACAGAUGAAGUGCUAGAUUCUGCCAUGCAAGCCUUCUUACUAGAAAUCAUUGUUAAACAUGGGGAGCCGGCACCUUAUUUAUGUAAUAAAGAUCCUUUU: 0.284 ratio
GAUAAGAAAAGCUUGUUGGAGACCCGAUUGCAUGUCACUGGUAGAGACCUGAGGUGUCAAAUAGCUGAAACUUUCGGAUUUCAAGAAAAUUACAUCAAAAUUGUCAUAAAUAAGAAACAG: 0.234 ratio
CUGGCACUCUAUCAGAUAUAUUAAUUUUUUAAUGUAGAUGUAAUUUUAAAAAUGAAUGGCUAGUUUACACGUUUAACUAGGGUUUUACUACAUAUGUGUACAUAUGUAUAUAUAUAUAUA: 6.45 ratio
AUGGAACAUUUCGAUGCGUCACUCAGUACCUAUUUCAAGGCAUUGCUAGGCCCUCGAGAUACAAGAGUCAAAGGAUGGUUCCUCCUGGACAAUUACAUCCCUACGUUUGUCUGUUCUGUU: 0.109 ratio
CAACCUCAGAGCCCAGACUUCCUGGAUAUUACCAACCCUAAAGCGGUAUUAGAAAAUGCAUUGAGAAACUUCGCCUGUCUGACGACUGGAGAUGUGAUUGCCAUCAACUACAAUGAGAAG: 0.312 ratio
GUUCGACUCUGGGAUCAUGCCACAAUGACAGAAGUGAAAUCUCUGAAUUUUAAUAUGUCUGUUAGCAGCAUGGAGUAUAUUCCUGAAGGAGAGAUUUUGGUUAUAACUUAUGGACGAUCU: 0.266 ratio
CUGAGGAAUACCACUGAGAGACCUUAAAAGAAUCAUUUUGACGGCUCGUUCGUGCAAGAAUAGUCACUGAUCGGGAAACUGGUUCUUCCAAAGGGUUUGGUUUUGUAGACUUUAAUAGUG: 0.837 ratio
AACAGAUUGUCUUUAAGCAUUCCAAGCGAGAAUGCUGGGGUGAUCAUUGUUGCCCAUGUGCCUUCUGACUGAGCUUUUAAUUAAUUGAUCCUUGAUGCUUUCCUUCACUCCAGAAUUGUU: 0.234 ratio
CACGUGUCUGCAGUGCUUGAUGUGGACUACUCUCCCACUGGGAAGGAAUUUGUGUCUGCCAGCUUUGAUAAGUCUAUUAGAAUCUUUCCUGUAGACAAGAGCCGAAGCAGGGAAGUGUAU: 0.576 ratio
GGACAUCUGUCAAAUUGUUAUGUUCCUGUGAAACAAGUGAACACUCUGAUACACUUCAUUUAGUUGUACAUCUGUAUGAUAGAGAAACAGAAAUCUAUUAAUCCAAGCAAUGUGUCACUU: 0.199 ratio
CUCAGAGAUGUGGCAUAUCAGUAUGUGAAAAAGGGGGCUCGUAUAUUUGUGGAAGGGAAAGUGGACUAUGGCGAGUACAUGGAUAAAAACAAUGUGAGGCGACAAGCAACAACAAUCAUA: 0.335 ratio

Other studies, line by line
PhoQ, residues 284 288 289 292 302 303 TVTVVA  fold induction (PhoP, residues 12 14 15 18 19 MHTVL (Escherichia coli, UniProt P23836); Sort-seq, measured: YFP reporter; E. coli; PhoQ-PhoP variant library, with: 10 µM Mg2+; baseline: high Mg2+ state, higher = stronger signaling): 13.9
